Published values collected from several papers.
A part holds a random share of what one study measured. Positions count from the first letter of the parent shown.

Study 1
Target: Histone acetyltransferase KAT6A, winged helix 1, GST fusion (KAT6A, Homo sapiens, UniProt Q92794, residues 1-85)
Method: protein binding microarray
Form: double-stranded DNA, one strand shown
Medium: in vitro
Tested at: not given
Setting: 8-mer, flanks averaged, mean of 2 arrays, mostly near background
Baseline: not given
Reading: higher = stronger binding
Endpoint: E-score
Residues (chain): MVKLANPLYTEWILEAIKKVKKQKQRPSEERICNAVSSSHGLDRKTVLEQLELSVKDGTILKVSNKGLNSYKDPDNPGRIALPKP
AACACCCC: -0.128
GTTTGACA: -0.116
ACTTCGCT: 0.0348
ACGATTTG: -0.067
ATCGACAA: -0.0722
GCCGCCTA: 0.343
CCTAGAAA: -0.0574
CCAAACAG: -0.158
AAGGAGGG: -0.134
GTCACCAC: 0.0374
TATGCAAA: -0.254
CGCGTTAA: 0.291
CAGCGTCG: 0.272
ATATGTTC: 0.0128
CGTCTGAA: -0.0787
GTCTTTAA: -0.1
AGAAAGAA: -0.0327
AGACCTTA: -0.0581
GGAGTATA: 0.117
CGCGGAGA: 0.295
TCCAATCA: -0.0545
AAGTGTGA: -0.22
GCCACCCA: -0.121
CTACCGCA: 0.209

Study 2
Target: CCNF, cyclin fold, Cln2 fusion (human)
Method: yeast growth competition, sequencing
Medium: yeast
Setting: strong parent motif
Baseline: not given
Reading: higher = stronger binding
Endpoint: normalised enrichment score
Parent: ORC1 docking peptide (human); PRARKRLELGNLG; partner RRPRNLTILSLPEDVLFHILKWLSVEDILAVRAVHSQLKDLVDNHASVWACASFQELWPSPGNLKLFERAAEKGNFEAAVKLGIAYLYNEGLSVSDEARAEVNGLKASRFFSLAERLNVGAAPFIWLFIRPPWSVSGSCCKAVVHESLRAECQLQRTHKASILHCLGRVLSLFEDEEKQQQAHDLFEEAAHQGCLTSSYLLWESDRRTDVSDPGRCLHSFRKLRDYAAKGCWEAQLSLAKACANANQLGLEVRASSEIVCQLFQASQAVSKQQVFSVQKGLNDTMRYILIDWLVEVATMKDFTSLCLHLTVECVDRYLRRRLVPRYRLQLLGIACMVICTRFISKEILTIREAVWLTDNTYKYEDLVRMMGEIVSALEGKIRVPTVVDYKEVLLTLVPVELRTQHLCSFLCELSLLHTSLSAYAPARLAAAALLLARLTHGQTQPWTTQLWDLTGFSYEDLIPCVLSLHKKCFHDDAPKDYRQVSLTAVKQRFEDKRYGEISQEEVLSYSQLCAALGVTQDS
L7A: 0.991
E8Y: 3.94
G13W: 4.05
L7R: 1.33
A3Y: 2.19
L9D: 1.08
A3N: 2.09
P1G: 2.29
K5Q: 0.863
L7G: 0.713
G10M: 2.33
A3I: 2.02
R2K: 3.79
K5N: 0.872
G10T: 2.21
A3W: 2.06
G10E: 4.34
R6H: 1.25
N11T: 3.89
G13P: 4.24
L12D: 3.65
L12R: 2.38
E8P: 1.65
R4M: 0.9
G13H: 3.51

Study 3
Target: Ras GTPase-activating protein-binding protein 1, full length (G3BP1, Homo sapiens, UniProt Q13283)
Chain of UniProt Q13283 (whole entry, looked up): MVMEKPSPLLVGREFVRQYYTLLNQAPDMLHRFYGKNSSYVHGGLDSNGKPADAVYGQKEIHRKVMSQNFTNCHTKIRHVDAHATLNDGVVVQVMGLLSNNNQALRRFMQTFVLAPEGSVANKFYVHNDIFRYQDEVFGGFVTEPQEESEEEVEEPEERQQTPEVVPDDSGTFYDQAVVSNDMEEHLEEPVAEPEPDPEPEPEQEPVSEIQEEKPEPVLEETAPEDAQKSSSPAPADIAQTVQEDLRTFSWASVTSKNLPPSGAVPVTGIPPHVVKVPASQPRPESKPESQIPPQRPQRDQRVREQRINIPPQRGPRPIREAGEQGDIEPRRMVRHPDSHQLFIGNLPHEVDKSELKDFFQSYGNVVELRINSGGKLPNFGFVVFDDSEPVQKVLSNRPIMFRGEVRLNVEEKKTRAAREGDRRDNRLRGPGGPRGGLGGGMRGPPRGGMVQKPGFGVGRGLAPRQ
Method: RNA Bind-n-Seq
Form: RNA
Medium: in vitro
Tested at: 200 nM
Setting: whole 134-nt RNA, ends assumed
With: 150 mM LiCl
Baseline: input library
Reading: higher = stronger binding
Endpoint: log2 enrichment
Each molecule: 7-deaza-guanosine replaces G
Shared flanks, not repeated: GGGAGUUCUACAGUCCGACGAUC … UGGAAUUCUCGGGUGUCAAGG
ACCAUGCAGGUGGGCAUCUUUGGGAAGUGGGGCAAGGGGGGGAUAGGGAGGGGGGUAACACUUUGGGAACAGGUGGUCCCAGGUCGUGUC: 0.203
CCUGUGCUACACAUCGUAUGUACCGAAUCGGGGUUUUUUUGGGUUUUUUUGGUUUUUUUGGAAAGUAUUAUGUUACGCCGUUCGGAUCUG: 1.34
AGUCCUGUGCUACACAUCGUAUGUACCGAAUCGGGUUUUUUUGGGUUUUUGGGAGGGAAAGUAUUAUGUUACGCCGUUCGGAUCUGCACU: -0.203
UAACUUUAGAGGAGGAUCUGAUGGAUAUGGCAGUGGACGUGGAUUUGGGGAUGGCUAUAAUGGGUCUGGAGGAGGACCUGGAGGUGGCAA: -0.324
CUCAAGUCCUGUGCUACACAUCGUAUGUACCGAAUCGGAAAAAGGAAAGGAGGAAAGUAUUAUGUUACGCCGUUCGGAUCUGCACUUCCA: -0.987
UGGGAGGUGGAUUUUGUUUAUUUUUUUAGCUCAUUUCCAGGGGUGGGAAUUUUUUUUUAAAAUGUGUCAUGAAUAAAGUUGUUUUUGAAA: -0.273
CACAGACAACACGCACCCACACAGACACAGAGGGAAGGGGUUGGGAUGGGGACAGGGUGCACAGCAGGCCGGGGUAGGACCCCAGCCCCU: -0.158
UGUUGUCUGGGUUUGGGGGUCGAGUAGAUGCGGGGCAGCCGGAGCUGUUGACGGAAAGGAGUAGCCCCAAAGGAGGGCAUGUGAAGUCGC: 0.102

Study 4
Target: RING finger protein unkempt homolog, zinc fingers 1-6, GST-SBP tag (UNK, Homo sapiens, UniProt Q9C0B0, residues 30-357)
Chain of UniProt Q9C0B0 (30-357, looked up): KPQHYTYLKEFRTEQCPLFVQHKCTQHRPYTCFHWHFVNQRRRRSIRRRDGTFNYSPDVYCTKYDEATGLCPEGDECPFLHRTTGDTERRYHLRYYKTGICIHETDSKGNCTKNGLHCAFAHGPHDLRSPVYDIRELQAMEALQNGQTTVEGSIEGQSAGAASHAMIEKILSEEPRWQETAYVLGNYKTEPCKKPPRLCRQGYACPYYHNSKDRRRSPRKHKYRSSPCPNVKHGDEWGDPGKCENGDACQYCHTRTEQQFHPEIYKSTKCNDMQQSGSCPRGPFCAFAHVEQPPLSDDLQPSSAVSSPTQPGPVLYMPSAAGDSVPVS
Method: RNA Bind-n-Seq
Form: RNA
Medium: in vitro
Tested at: not given
Setting: RNA with constant flanks, human-mouse chimeric sites, ends assumed
Baseline: input RNA pool
Reading: higher = stronger binding
Endpoint: bound/input enrichment
Shared flanks, not repeated: GGGAGUUCUACAGUCCGACGAUC … CAACAGAGGAUUGAGCAUCA
AGAUUCCCCCUCCUGAGACCUCCUCCGAAGUUGGAGUCUCUUACAGAUGCCUCAUCCCCUGUUAGUAUUUUAGUUUGGACCACCCAGCCUUGGACAAUUCCAGCCAACCAGGCAAUUUGC: 3.86 ratio
CUUAAUGUUAAUAUUUUUGAAUAAAUGAAGCUAAAAUUUUGCUUUCUGGUACAACACGCAUUAGCGAAAGGUUAAGUUUUGUUUUCCACUGAAGUACUAUUUAACAUCUCAGAAAAAAAC: 0.502 ratio
CAGCUGCAGACAGAGAAGGAUGAGAAGGAGCUGUAUAAGGUACAUUUGAAGAAUACAGAAAUAGAAAAUACGAAGCUUGUGUCAGAGGUCCAGACUUUAAAGAAUUUAGAUGGAAACAAA: 3.71 ratio
AACAGAUUGUCUUUAAGCAUUCCAAGCGAGAAUGCUGGGGUGAUCAUAAUUACCCACGUGCCUUCUGACUGAGCUUUAAUGCUGUUCCAUGUUACAUUGAUGUUCUUCUCCAGAAUUGUU: 0.111 ratio
UAAGUCCUGUGCCAGCACUUCGCUCAUAAAGUUUUAAAUUCAAGAAAAAUAGUGUUUGUUUCCUGAUUAUUGUAUCCAAUACUUUGCGUACUAUGUGACUCACUCUUACUGAUAAUAAAA: 3.12 ratio
AGCACAACCCCAGCAAAGCUCAGGAACCCUUGUACAAGUGAACAGAACUGCACCAGCCCAUUUAGCUACAAAAAUGUGCUUAGUCUUACUGACAGAGGAGAGUUUUUCAAUGAACUUGUU: 1.31 ratio
AUCCAGUACUCGAAUCACAAAGAACUAAAGACAGAUAAUACAUUAAACCAACGUGCGCAAGUAGUUCUUCAAGCUGUGACAGCUGUCCAGACAGCAAAUACUCCUCUUAGUGGCACCACA: 0.42 ratio
GGAUCUUUGGGACUGUUUUACUUAAUUGGUCAUUGAUAGCUUAACAAACAUGGAGAUAAGAUUAGAAGUUUUGACAUCAACAGGUAUUAAGCAGAAAAAACCAUGGCCACGUGUCUCCUG: 0.486 ratio

Study 5
Target: RNA binding protein fox-1 homolog 2, RRM domain, GST-SBP tag (RBFOX2, Homo sapiens, UniProt O43251-10, residues 100-194)
Method: RNA Bind-n-Seq
Form: RNA
Medium: in vitro
Tested at: 365 nM
Setting: natural RNA segment, single round, ends assumed
Baseline: no-protein control
Reading: higher = stronger binding
Endpoint: RBNS enrichment (R)
Shared flanks, not repeated: GGGAGUUCUACAGUCCGACGAUC … UGGAAUUCUCGGGUGCCAA
Construct (chain): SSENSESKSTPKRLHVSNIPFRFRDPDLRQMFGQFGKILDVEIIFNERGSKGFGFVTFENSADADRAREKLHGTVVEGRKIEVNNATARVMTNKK
UCCGGCCCCGGUUCCCCUCAGGUCCCUGUGCUCUGGUCAUUGCAGUGAUGGCUCACUCAGACUGUCCUGGCAGCCAAAGUGACUUUCUGGAGCUCUGCUUGCCUGUCCCC: 0.265
GAAAAUAUAUGUAAUAUGUAAAAAUAUGAAUGACUAUGUAUUCAAUAAAAAUAAUAUAGCACUGUAAUGCAGCUGCCUCUCUUCCUUUCCCUCUUCCAUCUCUUGCCUAG: 0.818
CAUGCCAUCUGGUGCCAAAUGAAAAUUCUUAGGAGUGAAUAUUAAUCAUGAAGGUCACAGUUGUGGUACUGUUAUUGAUAAUAAUAUAGGGUUUUUUUCUGCCUAAGUUU: 0.798
CAGCGAGCCGGAGGUGGCCUCCCAGCUGGCUCCCCAUUCGCUCUCCACAACUGCAUUCACUAUCACUUCUUGAGAUGGGACAGAUAUCCGUGCGUCAGUGGCUGGCAGAA: 0.522
GGUGUUAGCGUCGUUUGCCUAGCAUCUGAUUUUCUGAUGUAACCAGGGUUUCACGCUGUUCUUUUCCUCUGAAGUAUGACAUUUCAUUGACACAUUUCGGUCCAGUGUAG: 0.303
UUGGUUUGGUUCAGCAGUCAGCAGUUACAUACAUAACACAACCCGCAAGGACAGUGAAUCCGCUCCUGUUGCAGAGCAAUUUCCAAAAAGACGGCAAAGACUACUACUAU: 0.253
GACCUUGUACAGUCUGCUUGCUGGCUCUGAAAGCUGGGGUUGGGGGACAGAGUCUCAAGCCCUUAAUUUAUUUUAGCAGCUGUGUUUCUGUGACCCUGGUGUGACUAAGC: 0.562
CAUUUCUGAUGUUGUCUGCCCAUCAGGCAAACAUUCCCUUUUAAAUGCUUAUAUACACAUUCCUUAGGUUGGAAGAAUAUCCACGGACAAUGCACUUAUUUUUAAACGAG: 0.329
